Measured values pooled from the literature.
Parts stem from different laboratories: compare values within a part only.

Study 1
Target: RING finger protein unkempt homolog, zinc fingers 1-6, GST-SBP tag (UNK, Homo sapiens, UniProt Q9C0B0, residues 30-357)
Method: RNA Bind-n-Seq
Molecule type: RNA
Sample: in vitro
Tested at: not given
Setting: RNA with constant flanks, human-mouse chimeric sites, ends assumed
Relative to: input RNA pool
Direction: higher = stronger binding
Residues (chain): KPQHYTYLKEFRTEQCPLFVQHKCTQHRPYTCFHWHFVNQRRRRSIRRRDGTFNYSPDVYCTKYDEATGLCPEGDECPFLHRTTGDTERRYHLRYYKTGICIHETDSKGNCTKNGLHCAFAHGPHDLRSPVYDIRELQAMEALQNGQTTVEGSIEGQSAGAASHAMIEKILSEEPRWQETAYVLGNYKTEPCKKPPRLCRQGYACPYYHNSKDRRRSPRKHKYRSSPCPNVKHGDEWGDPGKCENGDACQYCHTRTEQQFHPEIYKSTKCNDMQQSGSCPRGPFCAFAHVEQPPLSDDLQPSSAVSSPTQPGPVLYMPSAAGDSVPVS
| Strand | bound/input enrichment [ratio] |
| --- | --- |
| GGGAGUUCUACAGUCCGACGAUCUUGCUACUAACUCCAUGGGUCAAGUUCCUGUGGGAAUCAUACAGGCAGUGUUUGGACCUUCUUCGAAACAAUUCUAGAGUAGAGCGCCUUUACCAUGAUAUUGCCCAACAAGCUUUCAAACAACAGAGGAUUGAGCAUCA | 0.15 |
| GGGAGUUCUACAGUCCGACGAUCGUGACUGGUGUUAAGAUUUACCCUCAGCAAAGAAGUGCAGUAGUCACCAUAAUUCCAUCUAUAGUGAGUGCCAGUCAGAUUGUGGAGCUGGUCCCAGACCUCAGUUUAGACAUGGGAACUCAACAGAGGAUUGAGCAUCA | 0.921 |
| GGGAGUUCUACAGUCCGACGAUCUGUAGUUGAUCCCCUGCUCAUUUUUCUCUUUUCUUUCUUUCCUUUAGGAAAAGCCUAAAGAUUAGGUUGUAAGAAAAACAGAAGCCAUGUUUCGAAGGAAGACCUGUCAGGUAUUUCGUCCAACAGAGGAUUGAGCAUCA | 0.0719 |
| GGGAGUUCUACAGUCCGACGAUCACACAAUAUGAGACCAACAGCUUGGACUUCAAAGUCGGGGCAGAUGGGACAGUCUUCGCCACCCGGGAGCUGCAGGUCCCCUCCGAGCAGGUGGCGUUCACGGUGACUGCAUGGGACAGCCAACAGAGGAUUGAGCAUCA | 0.179 |
| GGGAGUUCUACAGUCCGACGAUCAGGAGGAGAUUAAAGGGUGAGAGUGGGGUGGAAGACUGUGUCAUGGCUCUGGAGACACUGUUCAGUGUCCUGCUUUCUCUGUGCAGACUGAUGGCCCCUUACACGCCUUUUCUCACUGAGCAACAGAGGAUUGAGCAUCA | 0.0842 |
| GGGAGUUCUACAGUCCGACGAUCUCAGUCUUUUUGUACAGCUUUGUAAAUUCUUAACAUUUUUAUAUUGCCAUGUUUAUUUUGUUUGGGUAAUUUGGUUCAUUAAGUACAUAGCUAAGGUACAUCUUUCAUUUUUCAGUAAUUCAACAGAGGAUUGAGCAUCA | 1.35 |
| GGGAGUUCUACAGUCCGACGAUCGCUGGAUCUUCUAAGUACCAGUGGGACAUUAUGAAAUCCCUUGGGCUCUCUGAUGACGACAUAGUGAAAUUUUCUGAAGCAGAGCACUGGCUUGAUUAUUUCCCACCACUGGCCGUUCAGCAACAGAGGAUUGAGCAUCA | 0.245 |
| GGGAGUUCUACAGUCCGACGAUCAGAGCCCAGGAUGUUGAUGCUACAAAUCCAAAUUAUGAAAUUAUGUGUAUGAUCAGAGACUUCAGAGGAAGUUUGGAUUACAGACCCCUAACAACAGCAGAUCCUAUUGAUGAACAUAGGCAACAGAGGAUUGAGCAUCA | 0.562 |

Study 2
Target: RNA binding protein fox-1 homolog 2, RRM domain, GST-SBP tag (RBFOX2, Homo sapiens, UniProt O43251-10, residues 100-194)
Method: RNA Bind-n-Seq
Molecule type: RNA
Sample: in vitro
Tested at: 365 nM
Setting: natural RNA segment, single round, ends assumed
Relative to: no-protein control
Direction: higher = stronger binding
Target sequence (chain): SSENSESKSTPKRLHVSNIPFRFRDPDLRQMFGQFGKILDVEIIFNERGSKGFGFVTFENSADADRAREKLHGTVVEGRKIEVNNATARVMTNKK
| Strand | RBNS enrichment (R) |
| --- | --- |
| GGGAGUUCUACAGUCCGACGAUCGAAGUCUUUAAUAAAUAACCCAUAAUUGAAGUGUAUAAUAUAAAAAAUUUUAAAAAUCUAAGCAGCUUAUUGUUUCUCUGAAAGUGUGUGUAGUUUUACUUUCCUAAGGAUGGAAUUCUCGGGUGCCAA | 0.621 |
| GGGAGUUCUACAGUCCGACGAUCGUCCAAAAUACUGUUCUUUCCAGGCUAUGUAUAAAAUACAUAGUGAAAAUUGUUUAGUGAUAUUACAUUUAUUUAUCCAGAAAACUGUGAUUUCAGGAGAACCUAACAUGUGGAAUUCUCGGGUGCCAA | 0.45 |
| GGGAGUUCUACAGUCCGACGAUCUGCUUGAGGCUAGCCCAGUGAAAAAAACCAGAGACUCAUGUUUCCAGGGGUCAGUCUGUCAGGCAGGAAGGACCCAGGAUUUGAACCCAGCUUCAGUGUGCAGGCUCUGAUGGAAUUCUCGGGUGCCAA | 0.461 |
| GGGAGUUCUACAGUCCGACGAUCUUGUGUUUCACAUUGGGUAGUAUGCAUUCUGUCUGCACUGUCCCACCUUCUCAUCUCUACCUUUUAAGGGAUAUGGAAAGGUCUGGAGCUCUGUCUGACCCCACACUCUCUGGAAUUCUCGGGUGCCAA | 0.344 |
| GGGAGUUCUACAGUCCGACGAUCUCUUCUACUGCUUUUCAGUUCCCUUCCCUGCUGUUCUAUUUCCUUUGAGUGUAAAGACUCACAGGUGACCUGCUAUCGAGAUAGCCAGAGGGUCAGGAGAGAAUGGGGGAUGGAAUUCUCGGGUGCCAA | 0.213 |
| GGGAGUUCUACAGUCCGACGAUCUAGUGAUGCUGGCUCUGCAGUUCCCUCUUGCCCAUCCCCGAGUGGGGACAAUUUCCCCAUCCCCAAGUGGGGACAAUUUACUUCCUUCUUUGCUGGUUUACUCUAGGACUUGGAAUUCUCGGGUGCCAA | 0.362 |
| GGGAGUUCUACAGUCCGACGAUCAUAAACUCUUGAAGUGGUCUUAAGGUUAGCAAAUAAUUGUCUGUAUUAAACAUGGCGUUAUUUAAGUAGUCCUGCUGCAAGAAAGGCACUUCAGUGAAUAUGUGACUAGUUGGAAUUCUCGGGUGCCAA | 1.33 |
| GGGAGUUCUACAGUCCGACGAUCGCUUUGGCAUGCUCUGACCGCUCCUCUGUCACCUGCUUGGCUCCCAAGCUCUCUAGAGCAUCUGGACACAUGUUAACAAGCAUAGCCACUGACCUUAACCACAACCAUUAUGGAAUUCUCGGGUGCCAA | 1.11 |

Study 3
Target: Histone acetyltransferase KAT6A, winged helix 1, GST fusion (KAT6A, Homo sapiens, UniProt Q92794, residues 1-85)
Method: protein binding microarray
Molecule type: double-stranded DNA, one strand shown
Sample: in vitro
Tested at: not given
Setting: 8-mer, flanks averaged, mean of 2 arrays, mostly near background
Relative to: not given
Direction: higher = stronger binding
Target sequence (chain): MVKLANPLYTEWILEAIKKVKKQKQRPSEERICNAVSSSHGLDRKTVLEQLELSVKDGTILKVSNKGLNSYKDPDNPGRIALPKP
| Strand | E-score |
| --- | --- |
| CTCAAGGA | -0.178 |
| CACAAGTC | -0.109 |
| GCACCCGA | 0.189 |
| CGTTGAAC | 0.216 |
| GACGCCTC | -0.0183 |
| GACGTGCA | -0.134 |
| CGTTGTCA | 0.0654 |
| ACGTTAAG | -0.0482 |
| GCGCTCAA | 0.29 |
| CGCGAGCC | 0.375 |
| ACCAGTTC | -0.00319 |
| CAACCGCC | 0.186 |
| AGGGTCAT | -0.0491 |
| CGAGCTTA | -0.146 |
| GCTATCCC | -3.5e-05 |
| ATCGATTG | -0.0982 |
| CACGGTTC | -0.18 |
| CTGCGCAA | 0.157 |

Study 4
Target: Prothrombin, mature alpha-thrombin (F2, Homo sapiens, UniProt P00734)
Method: aptamer microarray, sandwich
Molecule type: DNA with 2'F-ANA
Sample: in vitro
Tested at: 200 nM
Setting: whole 15-mer aptamer, many near background
Together with: Cy3 exosite-II aptamer, 400 nM
Direction: higher = stronger binding
Strand: GGTTGGTGTGGTTGG
| Modification | mean fluorescence intensity [a.u.] |
| --- | --- |
| 2'F-ANA at 2 3 8 9 11 12 15 | 994 |
| 2'F-ANA at 1 2 5 6 7 10 11 14 | 51.5 |
| 2'F-ANA at 3 4 5 8 9 11 12 14 | 56.3 |
| 2'F-ANA at 4 5 8 9 11 14 | 47.7 |
| 2'F-ANA at 1 2 3 4 5 6 11 12 14 15 | 49.2 |
| 2'F-ANA at 1 6 8 9 | 198 |
| 2'F-ANA at 1 7 8 9 11 13 14 15 | 66.3 |
| 2'F-ANA at 2 7 10 11 12 13 14 15 | 91.3 |
| 2'F-ANA at 3 4 6 7 11 12 13 | 623 |
| 2'F-ANA at 1 4 5 8 10 12 15 | 46.7 |
| 2'F-ANA at 5 6 7 9 11 13 14 | 108 |
| 2'F-ANA at 1 2 4 7 9 10 13 14 | 46.3 |
| 2'F-ANA at 2 4 6 7 8 9 10 11 13 14 15 | 112 |
| 2'F-ANA at 1 3 4 5 6 8 10 11 12 14 15 | 48.1 |
| 2'F-ANA at 1 4 6 9 10 12 13 14 | 61.7 |
| 2'F-ANA at 2 4 6 7 11 14 15 | 79.8 |
| 2'F-ANA at 2 4 6 7 8 10 11 12 14 | 108 |
| 2'F-ANA at 1 2 3 4 6 10 11 14 15 | 62.8 |
| 2'F-ANA at 1 5 6 7 9 11 14 | 48.3 |
| 2'F-ANA at 2 3 4 6 7 8 9 10 13 14 | 153 |

For quick reference, copied from above (study 4):
| Modification | mean fluorescence intensity [a.u.] |
| --- | --- |
| 2'F-ANA at 1 7 8 9 11 13 14 15 | 66.3 |
| 2'F-ANA at 2 7 10 11 12 13 14 15 | 91.3 |
| 2'F-ANA at 3 4 6 7 11 12 13 | 623 |
| 2'F-ANA at 1 4 5 8 10 12 15 | 46.7 |
| 2'F-ANA at 5 6 7 9 11 13 14 | 108 |
